Published values pooled from the literature.
Organism: Trypanosoma brucei
Observed: parasite growth

SMILES | technique | strain | time | setting | endpoint | value
O=c1c(O)c(-c2ccc(O)c(O)c2)oc2cc(O)cc(O)c12 | resazurin | – | – | trypomastigote | IC50 | 7.8 µg/mL
N=C(N)c1ccc(-c2ccc(-c3ccc(C(=N)N)o3)o2)cn1 | – | RHODESIENSE STIB900 | – | – | IC50 | ≤ 6 nM
COc1cc(/C=C/c2cccc(Oc3ccccc3)c2)oc(=O)c1 | – | RHODESIENSE STIB900 | – | trypomastigote | IC50 | < 10000 nM
CSc1ccc(OCc2ncc([N+](=O)[O-])n2C)cc1 | resazurin | – | 74 h | trypomastigote | IC50 | 400 nM
O=C(Nc1nc2cc(-c3ccc(F)c(F)c3)ccc2s1)N1CCC(F)C1 (centres unmarked) | resazurin | – | 48 h | – | EC50 | > 2000 nM
N=C(N)c1ccc(-c2ccc(-c3ccc(C(=N)N)s3)o2)cc1 | – | RHODESIENSE STIB900 | – | – | IC50 | ≤ 6 nM
C=CCCCCCC(=O)N(C)[C@H](C(=O)N(C)[C@H](C(=O)N(C)[C@H](C(=O)N(C)[C@@H](C)C(=O)N(C)[C@@H](Cc1ccccc1)C(=O)N(C)CCCCCCCCC(=O)NCCNC(=O)CCC1=[N+]2C(=Cc3c(C)cc(C)n3[B-]2(F)F)C=C1)C(C)C)C(C)C)C(C)C | ATP luminescence | – | 48 h | – | IC50 | 3100 nM
O=Cc1ccc(-c2cc3cccc([N+](=O)[O-])c3[nH]c2=O)cc1 | resazurin | – | 74 h | trypomastigote | IC50 | 500 nM
C=CCCCC[C@@H](C)C(=O)N(C)[C@H](C(=O)N(C)[C@H](C(=O)N[C@H](C(=O)N(C)[C@@H](C)C(=O)N(C)[C@@H](Cc1ccccc1)C(N)=O)C(C)C)C(C)C)C(C)C | ATP luminescence | – | 48 h | – | IC50 | 1900 nM
O=C(Nc1ccc2oc(-c3ccccc3)nc2c1)N1CCCC1 | resazurin | – | 48 h | – | EC50 | ≥ 2800 nM
NCCCC(N)(C(=O)O)C(F)F (centres unmarked) | resazurin | – | – | trypomastigote | IC50 | 15800 nM

For quick reference, copied from above:
SMILES | technique | strain | time | setting | endpoint | value
O=C(Nc1nc2cc(-c3ccc(F)c(F)c3)ccc2s1)N1CCC(F)C1 (centres unmarked) | resazurin | – | 48 h | – | EC50 | > 2000 nM
